Experimental data of several laboratories.
Compare with care: the assays were run in different laboratories. Numbers after ± are the reported error.
Histone chaperone ASF1A: Histone chaperone ASF1A (Homo sapiens, UniProt Q9Y294)
Chain of UniProt Q9Y294 (whole entry, looked up): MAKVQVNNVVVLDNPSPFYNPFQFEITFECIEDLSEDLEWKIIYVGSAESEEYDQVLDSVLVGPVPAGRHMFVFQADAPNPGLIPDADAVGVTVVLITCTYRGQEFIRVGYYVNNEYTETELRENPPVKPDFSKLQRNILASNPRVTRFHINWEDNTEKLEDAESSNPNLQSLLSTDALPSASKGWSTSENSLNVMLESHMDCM
Complement C3: Complement C3 (Homo sapiens, UniProt P01024)
Chain of UniProt P01024 (whole entry, looked up): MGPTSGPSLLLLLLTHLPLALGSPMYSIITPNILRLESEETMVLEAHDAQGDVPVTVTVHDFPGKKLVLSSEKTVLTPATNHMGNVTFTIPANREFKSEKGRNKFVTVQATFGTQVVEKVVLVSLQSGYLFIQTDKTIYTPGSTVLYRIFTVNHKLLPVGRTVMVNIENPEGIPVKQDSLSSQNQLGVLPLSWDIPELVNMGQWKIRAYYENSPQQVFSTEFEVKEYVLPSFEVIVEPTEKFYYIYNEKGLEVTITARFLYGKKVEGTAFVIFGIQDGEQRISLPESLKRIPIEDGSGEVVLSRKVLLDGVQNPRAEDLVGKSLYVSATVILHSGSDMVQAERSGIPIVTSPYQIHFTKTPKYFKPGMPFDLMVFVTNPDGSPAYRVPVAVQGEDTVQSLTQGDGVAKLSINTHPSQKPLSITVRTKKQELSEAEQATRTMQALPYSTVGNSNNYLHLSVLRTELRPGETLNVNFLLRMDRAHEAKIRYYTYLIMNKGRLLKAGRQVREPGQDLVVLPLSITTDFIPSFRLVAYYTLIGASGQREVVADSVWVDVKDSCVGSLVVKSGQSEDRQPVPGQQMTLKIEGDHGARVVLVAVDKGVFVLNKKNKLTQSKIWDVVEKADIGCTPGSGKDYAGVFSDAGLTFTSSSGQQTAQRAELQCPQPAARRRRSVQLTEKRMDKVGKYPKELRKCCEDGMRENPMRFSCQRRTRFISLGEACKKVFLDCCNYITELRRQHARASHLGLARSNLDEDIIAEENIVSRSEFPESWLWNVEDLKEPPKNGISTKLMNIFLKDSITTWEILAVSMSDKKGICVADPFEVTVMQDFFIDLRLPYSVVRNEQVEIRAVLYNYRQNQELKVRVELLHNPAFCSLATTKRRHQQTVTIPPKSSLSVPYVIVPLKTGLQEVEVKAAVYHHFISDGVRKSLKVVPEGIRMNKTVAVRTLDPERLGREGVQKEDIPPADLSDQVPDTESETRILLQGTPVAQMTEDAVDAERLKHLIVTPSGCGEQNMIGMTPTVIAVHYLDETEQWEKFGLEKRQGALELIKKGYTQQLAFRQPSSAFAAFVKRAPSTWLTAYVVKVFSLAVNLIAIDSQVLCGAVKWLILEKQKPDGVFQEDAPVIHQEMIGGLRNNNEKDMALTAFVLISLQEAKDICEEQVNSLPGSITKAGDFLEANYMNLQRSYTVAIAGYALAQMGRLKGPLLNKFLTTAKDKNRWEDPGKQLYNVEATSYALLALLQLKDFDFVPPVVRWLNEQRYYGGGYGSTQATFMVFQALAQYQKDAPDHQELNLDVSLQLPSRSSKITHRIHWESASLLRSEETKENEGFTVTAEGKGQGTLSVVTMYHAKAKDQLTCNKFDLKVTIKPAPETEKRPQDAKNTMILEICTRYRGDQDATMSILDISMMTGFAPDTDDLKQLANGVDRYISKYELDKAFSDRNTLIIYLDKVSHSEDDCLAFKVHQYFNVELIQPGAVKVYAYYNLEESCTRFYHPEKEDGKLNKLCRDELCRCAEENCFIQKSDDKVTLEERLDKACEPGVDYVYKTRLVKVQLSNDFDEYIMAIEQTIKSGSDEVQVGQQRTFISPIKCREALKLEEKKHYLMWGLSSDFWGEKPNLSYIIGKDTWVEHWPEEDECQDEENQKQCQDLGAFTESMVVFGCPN
lecA: PA-I galactophilic lectin (lecA, Pseudomonas aeruginosa, UniProt Q05097)
Chain of UniProt Q05097 (whole entry, looked up): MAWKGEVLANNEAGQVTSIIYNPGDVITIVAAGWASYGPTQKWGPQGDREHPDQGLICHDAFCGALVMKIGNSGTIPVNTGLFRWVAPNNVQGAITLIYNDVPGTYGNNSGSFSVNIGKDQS
Chain of UniProt Q9BY41 (whole entry, looked up): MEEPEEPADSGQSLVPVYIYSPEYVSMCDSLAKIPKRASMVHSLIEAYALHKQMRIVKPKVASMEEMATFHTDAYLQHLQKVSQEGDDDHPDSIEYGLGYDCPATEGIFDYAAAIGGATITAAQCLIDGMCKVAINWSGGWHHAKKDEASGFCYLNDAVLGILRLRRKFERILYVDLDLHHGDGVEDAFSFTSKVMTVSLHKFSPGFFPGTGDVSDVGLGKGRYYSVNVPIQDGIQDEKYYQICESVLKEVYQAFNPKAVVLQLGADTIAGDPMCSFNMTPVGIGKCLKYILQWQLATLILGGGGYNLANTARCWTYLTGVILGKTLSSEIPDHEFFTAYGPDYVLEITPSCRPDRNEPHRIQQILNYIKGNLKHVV
Chain of UniProt O14786 (whole entry, unmodified, looked up): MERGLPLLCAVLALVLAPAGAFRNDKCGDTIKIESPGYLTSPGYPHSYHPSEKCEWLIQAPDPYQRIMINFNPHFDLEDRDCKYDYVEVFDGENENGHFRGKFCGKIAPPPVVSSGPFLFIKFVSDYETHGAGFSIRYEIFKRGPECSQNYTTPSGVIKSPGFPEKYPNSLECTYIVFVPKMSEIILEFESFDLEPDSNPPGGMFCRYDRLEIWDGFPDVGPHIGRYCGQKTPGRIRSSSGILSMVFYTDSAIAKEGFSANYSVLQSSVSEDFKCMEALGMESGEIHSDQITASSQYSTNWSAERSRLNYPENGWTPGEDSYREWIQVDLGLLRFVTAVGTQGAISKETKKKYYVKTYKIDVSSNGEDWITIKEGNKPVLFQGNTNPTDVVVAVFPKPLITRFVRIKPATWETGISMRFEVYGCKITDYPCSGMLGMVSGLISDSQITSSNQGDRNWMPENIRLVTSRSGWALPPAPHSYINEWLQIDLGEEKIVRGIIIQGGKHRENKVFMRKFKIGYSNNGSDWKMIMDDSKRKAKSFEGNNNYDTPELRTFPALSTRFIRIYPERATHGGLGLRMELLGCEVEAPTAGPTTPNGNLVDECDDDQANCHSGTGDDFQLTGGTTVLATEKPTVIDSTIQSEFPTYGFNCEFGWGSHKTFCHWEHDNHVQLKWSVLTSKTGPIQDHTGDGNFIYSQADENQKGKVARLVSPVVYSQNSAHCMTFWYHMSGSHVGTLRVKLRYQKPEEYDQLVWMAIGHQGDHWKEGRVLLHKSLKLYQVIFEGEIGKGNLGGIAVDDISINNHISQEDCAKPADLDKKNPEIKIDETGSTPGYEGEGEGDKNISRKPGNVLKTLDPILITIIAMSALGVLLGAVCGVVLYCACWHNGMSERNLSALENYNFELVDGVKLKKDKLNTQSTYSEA
Chain of UniProt O55242 (whole entry, looked up): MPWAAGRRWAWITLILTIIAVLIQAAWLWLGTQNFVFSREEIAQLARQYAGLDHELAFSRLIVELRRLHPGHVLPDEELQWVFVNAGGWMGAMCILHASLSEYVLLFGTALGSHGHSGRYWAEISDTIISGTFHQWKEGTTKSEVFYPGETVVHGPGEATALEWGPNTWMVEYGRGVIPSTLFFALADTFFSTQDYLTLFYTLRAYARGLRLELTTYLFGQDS
Chain of UniProt P53341 (whole entry, looked up): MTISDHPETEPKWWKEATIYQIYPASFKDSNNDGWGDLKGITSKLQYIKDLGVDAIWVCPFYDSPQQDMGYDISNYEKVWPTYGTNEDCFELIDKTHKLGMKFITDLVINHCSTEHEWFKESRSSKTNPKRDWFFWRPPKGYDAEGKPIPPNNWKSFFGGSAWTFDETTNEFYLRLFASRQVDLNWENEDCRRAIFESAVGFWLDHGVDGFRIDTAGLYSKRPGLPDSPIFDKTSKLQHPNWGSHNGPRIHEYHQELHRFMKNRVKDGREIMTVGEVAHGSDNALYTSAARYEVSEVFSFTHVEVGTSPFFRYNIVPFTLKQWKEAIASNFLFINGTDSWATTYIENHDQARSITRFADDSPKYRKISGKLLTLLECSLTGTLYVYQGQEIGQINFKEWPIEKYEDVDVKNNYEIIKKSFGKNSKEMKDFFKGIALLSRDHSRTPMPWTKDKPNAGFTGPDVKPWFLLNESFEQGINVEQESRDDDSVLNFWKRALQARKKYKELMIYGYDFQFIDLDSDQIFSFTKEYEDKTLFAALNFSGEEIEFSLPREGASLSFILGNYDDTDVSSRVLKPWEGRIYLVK
Chain of UniProt P63104 (whole entry, looked up): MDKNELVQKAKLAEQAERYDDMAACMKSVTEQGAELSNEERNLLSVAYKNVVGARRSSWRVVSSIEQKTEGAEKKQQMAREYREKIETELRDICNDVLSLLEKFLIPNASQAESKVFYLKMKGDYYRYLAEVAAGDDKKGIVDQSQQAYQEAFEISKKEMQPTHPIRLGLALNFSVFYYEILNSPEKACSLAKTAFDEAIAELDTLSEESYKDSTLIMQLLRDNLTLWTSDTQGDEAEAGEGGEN
Chain of UniProt P78417 (whole entry, looked up): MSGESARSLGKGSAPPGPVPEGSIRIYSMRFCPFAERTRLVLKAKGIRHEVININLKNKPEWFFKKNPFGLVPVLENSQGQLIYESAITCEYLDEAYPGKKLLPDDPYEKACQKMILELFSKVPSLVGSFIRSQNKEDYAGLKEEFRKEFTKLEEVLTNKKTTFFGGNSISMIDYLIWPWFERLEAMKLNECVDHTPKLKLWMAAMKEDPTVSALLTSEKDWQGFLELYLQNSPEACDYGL

| Compound | target or system | assay | system | setting | how to read | endpoint | value |
| --- | --- | --- | --- | --- | --- | --- | --- |
| CC1=C(/C=C/C(C)=C/C=C/C(C)=C/C=O)C(C)(C)CCC1 | CNGA1 (Bos taurus, UniProt Q00194) | ion current, inhibitor, patch clamp |  | 200 nM, holding potential +50 mV, together with: cGMP 2 mM |  | slow time constant of inhibition | 3780 s |
| CC[C@H](C)[C@H](NC(=O)[C@H](CCCNC(=N)N)NC(=O)NC[C@H](CCC(N)=O)NC(=O)NC[C@H](CC(C)C)NC(=O)NC[C@H](CCCNC(=N)N)NC(=O)NC[C@H](C)NC(=O)[C@H](CCCCN)NC(=O)[C@H](CCC(=O)O)NC(C)=O)C(=O)N[C@@H](C)C(N)=O | Histone chaperone ASF1A | isothermal titration calorimetry |  | concentration not given, pH 7.5, 20 °C |  | binding enthalpy | -1.8 ± 0.4 kcal/mol |
| O=C(c1ccc(O)cc1)C1(O)Oc2cc(O)cc(O)c2C1=O (centres unmarked) | laccase (Trametes versicolor) | substrate |  | product formation |  | Km | 8.29 ± 0.401 mM |
| Nc1ncnc2c1ncn2[C@@H]1O[C@H](CO)[C@@H](O[C@H]2O[C@H](CO)[C@@H](OP(=O)(O)O)[C@H](OP(=O)(O)O)[C@H]2O)[C@H]1O | Inositol 1,4,5-trisphosphate-gated calcium channel ITPR1, IP3-binding core (Itpr1, Rattus norvegicus, UniProt P29994) | binding, 3H-IP3 competition |  | IP3-binding core IBC |  | Hill coefficient | 0.8 ± 0.1 |
| CN(CCc1ccc(O)c(Br)c1)CCc1nccs1 | HTR2B (Homo sapiens, UniProt P41595) | β-arrestin recruitment, agonist |  |  |  | Emax | 50.3% |
| CC[C@H](C)[C@H](NC(C)=O)C(=O)N[C@H]1CSSC[C@@H](C(=O)N(C)[C@H](C(N)=O)[C@@H](C)CC)NC(=O)[C@H](CCCNC(=N)N)NC(=O)[C@H](Cc2c[nH]cn2)NC(=O)[C@H](C)NC(=O)CN(C)C(=O)[C@H](Cc2c[nH]c3ccccc23)NC(=O)[C@H](CC(=O)O)NC(=O)[C@H](CCC(N)=O)NC(=O)[C@H](Cc2cn(C)c3ccccc23)NC(=O)[C@H](C(C)C)NC1=O | Complement C3 | ITC | PBS | concentration not given, pH 7.4, 25 °C |  | ΔH of binding | -17.1 kcal/mol |
| [64Cu+2].c1cnc(CNCc2ccc(CN3CCCN4CCNCCCN(CC4)CC3)cc2)nc1 | CXCR4 (human) |  | NOD/SCID mice, U87 xenografts, U87 control tumour | 240 min post-injection |  | tissue uptake | 6.87 ± 1.01 %ID/g |
| CCOc1ccc(C[C@@H]2NC(=O)[C@H](C(C)C)NC(=O)[C@@H](NC(=O)[C@@H](NC(C)=O)[C@@H](C)CC)CSSC[C@@H](C(=O)N[C@H](C(N)=O)[C@@H](C)O)NC(=O)[C@H](CCCNC(=N)N)NC(=O)[C@H](Cc3c[nH]cn3)NC(=O)[C@H](C)NC(=O)CNC(=O)[C@H](Cc3c[nH]c4ccccc34)NC(=O)[C@H](CC(=O)O)NC(=O)[C@H](CCC(N)=O)NC2=O)cc1 | Complement C3 | ITC |  | pH 7.4, 25 °C |  | −TΔS | 6.6 kcal/mol |
| CCCCCC(O)/C=C/C=O (centres unmarked) | MAP3K20 (Homo sapiens, UniProt Q9NYL2) | inhibitor, SILAC-ABPP acylphosphate-ATP | HEK293T lysate, transfected | 100 µM, 30 min |  | probe labelling | decreased |
| [11CH3]Oc1ccc(-n2nc(OCCCN3CCCCC3)ccc2=O)cc1 | Sigmar1 (Mus musculus, UniProt O55242) | radiotracer | mouse BALB/c, brain | dose not given, together with: self-blocking 12.5 mg/kg |  | non-specific binding share | ~45% |
| CC(C)C[C@H](NC(=O)[C@H](CO)NC(=O)[C@H](CCCNC(=N)N)NC(=O)[C@H](CC(=O)O)NC(=O)[C@H](CCC(=O)O)NC(=O)[C@H](C)NC(=O)[C@@H]1CCCN1C(=O)[C@H](C)NC(=O)[C@H](CCC(=O)O)NC(=O)[C@@H]1CCCN1C(=O)[C@@H]1CCCN1)C(N)=O | dopamine system |  | rhesus monkey, contralateral caudate nucleus | intranasal, dose not given, repeated dose escalation | reference: vehicle | HVA level reduction | 24% |
| COc1ccc(S(=O)(=O)N2CCN(CC(=O)Nc3ccc(OC)cc3OC)CC2)cc1 | GRM4 (Homo sapiens, UniProt Q14833) | calcium mobilization, positive allosteric modulator | CHO cells expressing Gqi5 | together with: glutamate | reference: PHCCC maximal response | maximal response | 20.8 ± 1.1% |
| CC[C@H](C)[C@H](NC(=O)[C@H](CCCNC(=N)N)NC(=O)NC[C@H](CCC(N)=O)NC(=O)NC[C@H](CC(C)C)NC(=O)NC[C@H](CCCNC(=N)N)NC(=O)NC[C@H](Cc1ccc2ccccc2c1)NC(=O)[C@H](CCCCN)NC(=O)[C@H](CCC(=O)O)NC(=O)[C@H](CCC(=O)O)NC(=O)[C@@H](NC(=O)[C@H](CO)NC(=O)[C@H](C)NC(C)=O)[C@@H](C)O)C(=O)N[C@@H](C)C(N)=O | Histone chaperone ASF1A | isothermal titration calorimetry |  | pH 7.5, 20 °C |  | -TΔS | -4.3 ± 0.2 kcal/mol |
| OC[C@H]1O[C@@H](OCc2cn([C@@H]3O[C@H](CO)[C@@H](n4cc(-c5ccc(-c6cn([C@H]7[C@H](O)[C@@H](O)[C@H](n8cc(CO[C@@H]9O[C@H](CO)[C@H](O)[C@H](O)[C@H]9O)nn8)O[C@@H]7CO)nn6)cc5)nn4)[C@H](O)[C@H]3O)nn2)[C@H](O)[C@@H](O)[C@H]1O | lecA | isothermal titration calorimetry |  | 25 °C |  | ΔG | -10.9 ± 0.4 kcal/mol |
| O=C(c1cc2c(s1)CCCCC2)N1CCC(n2c(=O)[nH]c3ccccc32)CC1 | Trpc6 (Mus musculus, UniProt Q61143, K675R) | ion current, agonist, whole-cell patch clamp |  | 100 µM, K675R mutant |  | maximal current density | 1.43 ± 0.2 pA/pF |
| [64Cu+2].c1ccc(CNCc2ccc(CN3CCCN4CCNCCCN(CC4)CC3)cc2)nc1 | CXCR4 (human) |  | NOD/SCID mice, U87 xenografts, U87 control tumour | 120 min post-injection |  | tissue uptake | 2.13 ± 0.72 %ID/g |
| CC[C@H]1[C@@H](O)[C@@H]2[C@H](CC[C@]3(C)[C@@H]([C@H](C)CCOS(=O)(=O)[O-])CC[C@@H]23)[C@@]2(C)CC[C@@H](O)C[C@@H]12.[Na+] |  | EchoMRI | ob/ob NASH mouse model | oral, 3 mg/kg once daily, before treatment, baseline of 8 week study | reference: body weight | whole-body fat mass | 38.4 ± 1.2% |
| O=C(NC1CCCCC1)C(c1cccnc1)N(C(=O)CCl)c1ccc(F)cc1 (racemic) | GSTO1 (Homo sapiens, UniProt P78417) | covalent inhibitor, LC-MS/MS |  | 10 µM, enzyme 50 µM | reference: total labelling | labelling at non-active-site cysteines | 0 to 0.6% |
| [N-]=[N+]=N[C@H]1[C@H](O)[C@@H](O)[C@H](n2cc(CO[C@@H]3O[C@H](CO)[C@H](O)[C@H](O)[C@H]3O)nn2)O[C@@H]1CO | lecA | isothermal titration calorimetry |  | 25 °C |  | ΔG | -7.1 ± 0.1 kcal/mol |
| N=C(N)NCCC[C@H](NC(=O)[C@H](CCCNC(=N)N)NC(=O)[C@H](CC(N)=O)NC(=O)[C@H](CCCNC(=N)N)NC(=O)[C@@H]1CCCN1C(=O)[C@H](CCCCN)NC(=O)[C@H](CCCCN)NC(=O)[C@H](CCC(N)=O)NC(=O)[C@H](CC(=O)O)NC(=O)[C@@H](N)Cc1c[nH]c2ccccc12)C(=O)O | Neuropilin-1 (NRP1, Homo sapiens, UniProt O14786) | binding, ITC |  | pH 7.4, 30 °C |  | TΔS | -12.2 kcal/mol |
| CC(C)C[C@H](NC(=O)[C@@H]1CCCN1C(=O)[C@H](CC(=O)O)NC(=O)[C@H](CO)NC(=O)[C@H](C)NC(=O)c1cc(-c2ccccc2)nc2ccccc12)C(=O)NCC(=O)N[C@H](C(=O)N[C@H](C(=O)N[C@@H](CCCNC(=N)N)C(=O)NCC(=O)N[C@@H](CCCNC(=N)N)C(=O)N[C@@H](C)C(=O)N[C@@H](CCCNC(=N)N)C(=O)N[C@H](CCCNC(=O)CCOCCOCCOCCOCCNC(=O)CCCC[C@@H]1SC[C@@H]2NC(=O)N[C@@H]21)C(N)=O)C(C)C)C(C)C | antibody 12CA5 | biolayer interferometry |  | concentration not given, 7.8 to 1000 nM analyte |  | binding | no binding |
| COc1ccc(CCCN[C@H]2CCC[C@@H]2CN[C@@H]2CCC[C@H]2CNCCCCN[C@@H]2CCC[C@H]2CN)cc1 | KDM1B (Homo sapiens, UniProt Q8NB78) | peroxidase-coupled |  |  | reference: Ki for KDM1B over Ki for LSD1 | selectivity ratio | 2.3 |
| COc1ccc2c(c1)/C(=N/N=C/c1ccc(OCc3ccccc3)cc1)C(=O)N2 | MAOA (Homo sapiens, UniProt P21397) | enzyme activity, inhibitor |  | 10 µM |  | remaining activity | 85.7% |
| CC[C@H](C)[C@H](NC(C)=O)C(=O)N[C@H]1CSSC[C@@H](C(=O)N[C@H](C(N)=O)[C@@H](C)O)NC(=O)[C@H](CCCNC(=N)N)NC(=O)[C@H](Cc2c[nH]cn2)NC(=O)[C@H](C)NC(=O)CNC(=O)[C@H](Cc2c[nH]c3ccccc23)NC(=O)[C@H](CC(=O)O)NC(=O)[C@H](CCC(N)=O)NC(=O)[C@H](Cc2ccc3ccccc3c2)NC(=O)[C@H](C(C)C)NC1=O | Complement C3 | isothermal titration calorimetry |  |  | reference: 1-methyltryptophan reference | -TΔΔS | -2.1 kcal/mol |
| NS(=O)(=O)Nc1ncnc(OCCOc2ncc(Br)cn2)c1-c1ccc(Br)cc1 |  | M6 formation | female Beagle dog, liver microsomes | 50 mg/kg daily for 4 weeks |  | Km | 0.0072 ± 0.001 mM |
| CC[C@H](C)[C@H](NC(=O)[C@H](CCCNC(=N)N)NC(=O)[C@H](CCCCN)NC(=O)[C@@H](NC(=O)[C@H](C)NC(=O)[C@H](CCCNC(=N)N)NC(=O)[C@H](CCC(N)=O)NC(=O)[C@H](CO)NC(=O)[C@H](CCCCN)NC(=O)[C@H](CC(N)=O)NC(=O)[C@@H](N)CCCNC(=N)N)[C@@H](C)O)C(=O)N[C@@H](COP(=O)(O)O)C(=O)N[C@@H](Cc1c[nH]cn1)C(=O)N[C@@H](CCSC)C(=O)N1CCC[C@H]1C(=O)N[C@@H](CO)C(=O)N[C@@H](CCCNC(=N)N)C(=O)N1CCC[C@H]1C(=O)N[C@@H](CCC(=O)O)C(=O)N[C@@H](CC(C)C)C(=O)N[C@@H](CO)C(=O)N[C@@H](C)C(=O)N[C@H](C(=O)N[C@@H](C)C(=O)N[C@H](C(=O)N[C@@H](CC(=O)O)C(=O)N[C@@H](CC(C)C)C(=O)N[C@@H](CCCNC(=N)N)C(=O)N[C@@H](CCCCN)C(=O)N[C@@H](CC(=O)O)C(=O)N[C@@H](CCCCN)C(=O)N[C@@H](C)C(=O)N[C@@H](CCCCN)C(=O)N[C@@H](COP(=O)(O)O)C(=O)N[C@@H](CS)C(=O)OC)[C@@H](C)O)C(C)C | YWHAZ (Homo sapiens, UniProt P63104) | dissociation, stopped-flow fluorescence polarization |  | two-step model |  | koff | 9.69 s⁻¹ |
| O=C(CCCCCCS)Nc1ccccc1 | HDAC8 (Homo sapiens, UniProt Q9BY41) | isothermal titration calorimetry |  | concentration not given, pH 7.5 |  | intrinsic binding enthalpy | -0.06 ± 0.1 kcal/mol |
| O=C([O-])CN1CCN(CC(=O)[O-])CCN(C(CCC(=O)NCCCCCN(CCCC[C@H](NC(=O)N[C@@H](CCC(=O)O)C(=O)O)C(=O)O)C(=O)c2ccc(I)cc2)C(=O)O)CCN(CC(=O)[O-])CC1.[68Ga+3] (some centres unmarked) | FOLH1 (Homo sapiens, UniProt Q04609) | PET/CT | human, liver metastasis |  | reference: normal liver | tumour-to-background ratio | 2.2 |
| C=C1C(=O)O[C@@H]2[C@H]3C(CO)=CC(=O)C3=C(C)C[C@H](O)[C@@H]12 | MAL12 (Saccharomyces cerevisiae S288c, UniProt P53341) | fluorescence quenching |  | 310 K |  | quenching rate constant Kq | 3.89e+11 M⁻¹ s⁻¹ |

Excerpt of the above:
| Compound | target or system | assay | system | setting | how to read | endpoint | value |
| --- | --- | --- | --- | --- | --- | --- | --- |
| O=C(c1ccc(O)cc1)C1(O)Oc2cc(O)cc(O)c2C1=O (centres unmarked) | laccase (Trametes versicolor) | substrate |  | product formation |  | Km | 8.29 ± 0.401 mM |
| Nc1ncnc2c1ncn2[C@@H]1O[C@H](CO)[C@@H](O[C@H]2O[C@H](CO)[C@@H](OP(=O)(O)O)[C@H](OP(=O)(O)O)[C@H]2O)[C@H]1O | Inositol 1,4,5-trisphosphate-gated calcium channel ITPR1, IP3-binding core (Itpr1, Rattus norvegicus, UniProt P29994) | binding, 3H-IP3 competition |  | IP3-binding core IBC |  | Hill coefficient | 0.8 ± 0.1 |
| CN(CCc1ccc(O)c(Br)c1)CCc1nccs1 | HTR2B (Homo sapiens, UniProt P41595) | β-arrestin recruitment, agonist |  |  |  | Emax | 50.3% |
